Measurements from different studies.
Parts stem from different laboratories: compare values within a part only.

Set 1
Target: Centromere-binding protein 1, full length, N-terminal tag (CBF1, Saccharomyces cerevisiae, UniProt P17106, residues 1-351)
UniProt P17106, sequence (whole entry, looked up): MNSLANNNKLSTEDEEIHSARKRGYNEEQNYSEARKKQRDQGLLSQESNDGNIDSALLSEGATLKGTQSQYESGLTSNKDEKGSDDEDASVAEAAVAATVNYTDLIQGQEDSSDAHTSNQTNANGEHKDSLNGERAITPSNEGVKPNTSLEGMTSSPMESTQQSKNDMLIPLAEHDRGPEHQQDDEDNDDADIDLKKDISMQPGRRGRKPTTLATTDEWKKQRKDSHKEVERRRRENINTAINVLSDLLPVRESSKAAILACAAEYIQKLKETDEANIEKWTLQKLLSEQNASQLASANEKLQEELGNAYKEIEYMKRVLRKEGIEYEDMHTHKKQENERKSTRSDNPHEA
Method: protein-binding microarray
Molecule type: double-stranded DNA, one strand shown
Medium: in vitro
Concentration: 0.8 µM
Notes: whole 60-bp probe, no competitor
Direction: higher = stronger binding
With `GAATTGTGTATGCGTTGTGACGTACGGAAGGCATAGGTCTTGATTCGCTTGACGCTGCTG` the fluorescence intensity was 543 a.u.
The fluorescence intensity of `GAAACGCAGACGTAACATCAGTCATCAGTTAATTAGGTCTTGATTCGCTTGACGCTGCTG` is reported as 534 a.u.
`GAAACCCACATTTAATGCGTGACGTTGAATCGATAGGTCTTGATTCGCTTGACGCTGCTG` gave a fluorescence intensity of 823 a.u.

Set 2
Target: Histone acetyltransferase KAT6A, both winged helices, GST fusion (KAT6A, Homo sapiens, UniProt Q92794, residues 1-181)
Method: protein binding microarray
Molecule type: double-stranded DNA, one strand shown
Medium: in vitro
Concentration: not given
Notes: 8-mer, flanks averaged, mean of 2 arrays, mostly near background
Reference: not given
Direction: higher = stronger binding
Construct (chain): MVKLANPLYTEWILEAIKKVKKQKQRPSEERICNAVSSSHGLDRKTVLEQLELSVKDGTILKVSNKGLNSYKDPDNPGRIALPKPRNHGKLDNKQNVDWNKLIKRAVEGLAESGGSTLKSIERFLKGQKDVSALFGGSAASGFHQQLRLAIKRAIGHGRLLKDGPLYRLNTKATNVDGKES
`AAACATAA` has an E-score of -0.109.
`ATGATCAA` gave an E-score of -0.0378.
For `AACGGGGA`, the E-score was 0.0926.

Set 3
Target: Prothrombin, mature alpha-thrombin (F2, Homo sapiens, UniProt P00734)
Method: aptamer microarray, sandwich
Molecule type: DNA with 2'F-ANA
Medium: in vitro
Concentration: 200 nM
Notes: whole 15-mer aptamer, many near background
With: Cy3 exosite-II aptamer, 400 nM
Direction: higher = stronger binding
`GGTTGGTGTGGTTGG (2'F-ANA at 2 4 9 10 12 13)` — result for “mean fluorescence intensity”: 99.2 a.u.
Under “mean fluorescence intensity”, `GGTTGGTGTGGTTGG (2'F-ANA at 2 4 7 11 12 14)` is recorded as 152 a.u.
`GGTTGGTGTGGTTGG (2'F-ANA at 3 4 5 6 7 8 9 11 12 13 14)`: “mean fluorescence intensity” 50.3 a.u.

Further values, each from its own experiment
With `PhoQ, residues 284 288 289 292 302 303 TNASYF` the fold induction was 4.92 (PhoP, residues 12 14 15 18 19 NNFVT (Escherichia coli, UniProt P23836); Sort-seq, refers to: YFP reporter; E. coli; PhoQ-PhoP variant library, with: 10 µM Mg2+; reference: high Mg2+ state, higher = stronger signaling).

For quick reference, copied from above (set 2):
For `AACGGGGA`, the E-score was 0.0926.
